Results from different studies.
Lines come from different studies, so protocols differ. ± marks the error that the study gave.
CNR1: Cannabinoid receptor 1 (CNR1, Homo sapiens, UniProt P21554)
Chain of UniProt P21554 (whole entry, looked up): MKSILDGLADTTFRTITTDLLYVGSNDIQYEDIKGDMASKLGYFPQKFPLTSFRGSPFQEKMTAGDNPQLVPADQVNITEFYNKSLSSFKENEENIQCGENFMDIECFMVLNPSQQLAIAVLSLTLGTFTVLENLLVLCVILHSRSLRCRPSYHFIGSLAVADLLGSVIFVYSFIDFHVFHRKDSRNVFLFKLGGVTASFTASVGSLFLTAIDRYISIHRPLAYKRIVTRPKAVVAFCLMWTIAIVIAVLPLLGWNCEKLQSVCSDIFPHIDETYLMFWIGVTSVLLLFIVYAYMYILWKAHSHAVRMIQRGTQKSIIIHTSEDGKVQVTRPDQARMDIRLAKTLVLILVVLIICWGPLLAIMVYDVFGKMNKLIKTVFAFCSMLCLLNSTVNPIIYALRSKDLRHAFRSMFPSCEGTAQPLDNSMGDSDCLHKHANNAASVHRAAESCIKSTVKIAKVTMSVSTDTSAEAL
GLP1R: Glucagon-like peptide 1 receptor (GLP1R, Homo sapiens, UniProt P43220)
Chain of UniProt Q704Y3 (whole entry, unmodified, looked up): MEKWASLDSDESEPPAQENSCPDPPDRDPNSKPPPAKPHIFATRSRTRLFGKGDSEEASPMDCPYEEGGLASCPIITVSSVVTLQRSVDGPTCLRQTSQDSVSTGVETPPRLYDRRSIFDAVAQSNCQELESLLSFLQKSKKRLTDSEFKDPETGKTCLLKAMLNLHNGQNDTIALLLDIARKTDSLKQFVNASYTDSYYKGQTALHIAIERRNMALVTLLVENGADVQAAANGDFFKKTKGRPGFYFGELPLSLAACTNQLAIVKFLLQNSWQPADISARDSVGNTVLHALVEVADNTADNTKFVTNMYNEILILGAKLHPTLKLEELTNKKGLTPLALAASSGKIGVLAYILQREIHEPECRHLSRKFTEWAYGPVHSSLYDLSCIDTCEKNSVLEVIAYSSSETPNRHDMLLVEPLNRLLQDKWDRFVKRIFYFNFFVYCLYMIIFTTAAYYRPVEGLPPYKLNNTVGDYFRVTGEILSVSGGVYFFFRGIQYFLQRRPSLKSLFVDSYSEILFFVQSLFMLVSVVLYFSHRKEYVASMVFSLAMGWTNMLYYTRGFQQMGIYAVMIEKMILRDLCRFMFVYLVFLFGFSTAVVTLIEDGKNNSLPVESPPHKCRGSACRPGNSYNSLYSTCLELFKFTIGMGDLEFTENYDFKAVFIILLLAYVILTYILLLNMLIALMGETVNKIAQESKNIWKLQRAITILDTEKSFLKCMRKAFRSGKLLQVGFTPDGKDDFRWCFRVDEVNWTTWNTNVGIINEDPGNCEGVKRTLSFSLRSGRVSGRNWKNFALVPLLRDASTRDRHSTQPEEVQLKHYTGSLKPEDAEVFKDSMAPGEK
Chain of UniProt Q9UKP6 (whole entry, unmodified, looked up): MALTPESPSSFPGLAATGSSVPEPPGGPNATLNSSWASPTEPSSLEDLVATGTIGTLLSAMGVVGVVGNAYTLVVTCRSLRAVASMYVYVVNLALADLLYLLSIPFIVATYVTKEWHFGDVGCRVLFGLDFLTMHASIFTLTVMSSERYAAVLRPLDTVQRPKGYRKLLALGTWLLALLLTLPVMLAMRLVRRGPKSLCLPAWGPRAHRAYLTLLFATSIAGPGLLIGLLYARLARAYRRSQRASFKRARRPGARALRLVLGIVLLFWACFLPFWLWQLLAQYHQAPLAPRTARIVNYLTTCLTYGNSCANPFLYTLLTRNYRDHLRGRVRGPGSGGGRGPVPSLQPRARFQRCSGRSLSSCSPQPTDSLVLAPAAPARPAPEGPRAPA
Chain of UniProt O88457 (whole entry, looked up): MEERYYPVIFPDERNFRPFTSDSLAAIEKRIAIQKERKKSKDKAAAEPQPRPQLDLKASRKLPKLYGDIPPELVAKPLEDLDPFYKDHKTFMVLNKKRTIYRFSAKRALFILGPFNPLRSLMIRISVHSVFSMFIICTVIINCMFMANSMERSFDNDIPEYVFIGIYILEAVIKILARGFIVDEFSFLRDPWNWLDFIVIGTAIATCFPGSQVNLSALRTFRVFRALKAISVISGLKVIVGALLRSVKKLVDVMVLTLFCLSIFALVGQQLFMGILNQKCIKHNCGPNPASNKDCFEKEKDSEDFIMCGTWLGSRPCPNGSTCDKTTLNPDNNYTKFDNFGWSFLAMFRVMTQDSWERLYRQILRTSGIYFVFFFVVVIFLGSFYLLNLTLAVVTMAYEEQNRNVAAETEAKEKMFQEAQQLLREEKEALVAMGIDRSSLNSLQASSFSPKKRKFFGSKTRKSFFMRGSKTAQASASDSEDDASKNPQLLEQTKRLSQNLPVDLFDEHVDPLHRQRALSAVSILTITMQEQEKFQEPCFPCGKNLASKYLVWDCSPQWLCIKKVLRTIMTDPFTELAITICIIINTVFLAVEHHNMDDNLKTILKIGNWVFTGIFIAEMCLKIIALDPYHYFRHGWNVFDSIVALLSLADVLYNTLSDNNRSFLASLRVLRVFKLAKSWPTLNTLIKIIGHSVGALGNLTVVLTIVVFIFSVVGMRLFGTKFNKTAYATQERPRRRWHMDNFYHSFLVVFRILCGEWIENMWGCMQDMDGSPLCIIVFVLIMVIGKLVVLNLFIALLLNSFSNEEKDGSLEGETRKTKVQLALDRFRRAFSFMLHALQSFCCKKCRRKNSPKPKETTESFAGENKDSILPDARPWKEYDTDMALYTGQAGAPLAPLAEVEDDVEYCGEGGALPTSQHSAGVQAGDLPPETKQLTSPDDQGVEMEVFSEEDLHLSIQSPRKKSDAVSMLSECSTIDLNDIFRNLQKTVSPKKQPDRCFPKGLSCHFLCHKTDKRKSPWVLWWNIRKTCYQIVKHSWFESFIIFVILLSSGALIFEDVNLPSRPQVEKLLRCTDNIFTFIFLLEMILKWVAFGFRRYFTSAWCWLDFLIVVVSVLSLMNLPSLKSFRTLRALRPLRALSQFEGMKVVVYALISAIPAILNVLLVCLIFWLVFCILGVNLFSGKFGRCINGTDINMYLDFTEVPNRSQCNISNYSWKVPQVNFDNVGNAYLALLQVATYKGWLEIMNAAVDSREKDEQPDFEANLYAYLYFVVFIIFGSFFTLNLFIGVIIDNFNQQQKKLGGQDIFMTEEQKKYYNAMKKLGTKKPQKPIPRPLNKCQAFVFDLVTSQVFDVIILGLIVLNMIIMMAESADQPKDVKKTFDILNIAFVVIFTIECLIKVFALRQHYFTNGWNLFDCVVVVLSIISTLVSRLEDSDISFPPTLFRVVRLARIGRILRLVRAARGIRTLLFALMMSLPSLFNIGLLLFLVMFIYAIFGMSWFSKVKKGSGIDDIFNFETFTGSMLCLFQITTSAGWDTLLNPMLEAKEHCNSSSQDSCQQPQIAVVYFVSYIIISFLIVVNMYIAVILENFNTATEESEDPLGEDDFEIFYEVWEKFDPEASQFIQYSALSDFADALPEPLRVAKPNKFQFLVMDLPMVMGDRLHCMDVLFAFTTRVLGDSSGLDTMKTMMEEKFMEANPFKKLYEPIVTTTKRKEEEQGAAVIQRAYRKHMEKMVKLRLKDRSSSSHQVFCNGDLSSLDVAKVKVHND
Chain of UniProt P29322 (whole entry, looked up): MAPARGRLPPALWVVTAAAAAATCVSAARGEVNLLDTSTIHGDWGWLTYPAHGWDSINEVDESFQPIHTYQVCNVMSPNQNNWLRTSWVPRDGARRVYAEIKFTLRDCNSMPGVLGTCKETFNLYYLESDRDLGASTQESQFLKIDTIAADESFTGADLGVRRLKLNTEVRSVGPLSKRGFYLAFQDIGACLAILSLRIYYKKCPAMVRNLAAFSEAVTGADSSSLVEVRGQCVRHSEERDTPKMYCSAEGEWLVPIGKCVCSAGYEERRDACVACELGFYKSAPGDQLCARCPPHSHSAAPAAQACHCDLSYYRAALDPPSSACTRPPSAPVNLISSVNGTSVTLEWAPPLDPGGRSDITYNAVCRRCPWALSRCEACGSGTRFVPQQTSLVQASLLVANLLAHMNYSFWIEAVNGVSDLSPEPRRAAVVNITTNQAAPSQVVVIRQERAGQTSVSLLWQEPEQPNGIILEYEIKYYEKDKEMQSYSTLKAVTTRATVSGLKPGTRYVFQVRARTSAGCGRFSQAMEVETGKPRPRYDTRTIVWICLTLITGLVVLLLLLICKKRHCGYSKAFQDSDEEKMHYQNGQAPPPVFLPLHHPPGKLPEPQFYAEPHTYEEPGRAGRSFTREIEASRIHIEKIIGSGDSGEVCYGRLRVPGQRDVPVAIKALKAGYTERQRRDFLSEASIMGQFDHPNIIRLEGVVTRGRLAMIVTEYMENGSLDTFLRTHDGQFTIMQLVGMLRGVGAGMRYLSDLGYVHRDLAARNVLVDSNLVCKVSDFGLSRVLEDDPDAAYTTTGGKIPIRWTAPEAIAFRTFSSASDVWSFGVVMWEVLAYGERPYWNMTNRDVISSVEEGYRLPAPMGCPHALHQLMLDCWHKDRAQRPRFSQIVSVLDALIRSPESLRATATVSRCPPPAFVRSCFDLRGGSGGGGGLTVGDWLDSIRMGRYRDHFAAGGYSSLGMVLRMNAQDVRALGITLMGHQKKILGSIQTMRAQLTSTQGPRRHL
Chain of UniProt P41143 (whole entry, unmodified, looked up): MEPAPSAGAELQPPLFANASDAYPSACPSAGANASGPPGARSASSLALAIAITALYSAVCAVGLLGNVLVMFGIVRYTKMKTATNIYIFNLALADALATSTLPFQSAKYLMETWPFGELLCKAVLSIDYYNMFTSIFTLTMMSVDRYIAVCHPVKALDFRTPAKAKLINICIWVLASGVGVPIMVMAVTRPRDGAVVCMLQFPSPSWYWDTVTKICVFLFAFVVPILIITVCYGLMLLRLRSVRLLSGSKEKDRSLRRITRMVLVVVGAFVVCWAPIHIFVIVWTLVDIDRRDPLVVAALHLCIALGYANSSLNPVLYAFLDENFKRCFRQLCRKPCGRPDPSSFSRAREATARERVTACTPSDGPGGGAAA

`O=C1NC2(CC2)COc2ncc(F)cc2[C@H]2COCCN2c2ccn3ncc1c3n2` — result for “pancreatic amylase activity”: 1690 ± 274 U/L (Sprague-Dawley rat, female, serum; oral, 5 mg/kg/day, 4 weeks daily, end of treatment).
With `CC(CCC(=O)NCCS(=O)(=O)O)C1CCC2C3C(O)CC4CC(OS(=O)(=O)O)CCC4(C)C3CC(O)C12C` (stereo not drawn) the EC50 was > 200000 nM (G-protein coupled bile acid receptor 1 (GPBAR1, Homo sapiens, UniProt Q8TDU6); agonist).
For `CCCCCn1ccc(C(=O)N[C@H](C)c2ccccc2)n1`, the EC50 was > 10000 nM (CNR1; calcium signal, agonist).
`COc1ccccc1-c1n[nH]c2nc(NC3CCN(C(=O)Cc4ccc(F)cc4F)CC3)ncc12` has a relative abundance of 1.14 (bead binding, competition bead pull-down, measured: LMJF.30.0120; Leishmania donovani axenic amastigote extract; 10 µM; baseline: vehicle).
With `O=C(c1cc(Cc2n[nH]c(=O)c3ccccc23)ccc1F)N1CC(CNC2CC2)C1` the EC50 was 2.2 nM (Poly [ADP-ribose] polymerase 1 (PARP1, Homo sapiens, UniProt P09874)).
`CC[C@H](C)[C@H](NC(=O)[C@H](CO)NC(=O)[C@H](Cc1ccc(O)cc1)NC(=O)[C@H](Cc1ccc(O)cc1)NC(=O)[C@H](CC(N)=O)NC(=O)CNC(=O)[C@H](CO)NC(=O)[C@H](Cc1ccc(O)cc1)NC(=O)[C@H](CO)NC(=O)[C@H](CO)NC(=O)[C@H](CC(N)=O)NC(=O)COCCOCCNC(=O)CN1CCN(CC(=O)O)CCN(CC(=O)O)CCN(CC(=O)O)CC1)C(=O)N[C@@H](CC(C)C)C(N)=O` [copper-64 labelled] gave a tissue uptake of 13.8 %ID/mL (dynamic PET; KPC mouse Ptf1a-CreER tdTomato, metastases; intravenous, dose not given, 1.6 min, 84 d after tamoxifen).
The EC50 of `CCCCC/C=C\C/C=C\C/C=C\C/C=C\CCCC(=O)NCCc1ccc(O)c(O)c1` is reported as 80 ± 30 nM (Transient receptor potential cation channel subfamily V member 1 (Trpv1, Mus musculus, UniProt Q704Y3, D577E); ion current, agonist, whole-cell patch clamp; 24 °C, D577E, +80 mV).
`CC[C@H](C)[C@H](NC(=O)[C@H](Cc1ccccc1)NC(=O)[C@H](CCC(=O)O)NC(=O)[C@H](CCCCN)NC(=O)[C@H](C)NC(=O)[C@H](C)NC(=O)[C@H](CCC(N)=O)NC(=O)CNC(=O)[C@H](CCC(=O)O)NC(=O)[C@H](CC(C)C)NC(=O)[C@H](Cc1ccc(O)cc1)NC(=O)[C@H](CO)NC(=O)[C@H](CO)NC(=O)[C@@H](NC(=O)[C@H](CC(=O)O)NC(=O)[C@H](CO)NC(=O)[C@@H](NC(=O)[C@H](Cc1ccccc1)NC(=O)[C@@H](NC(=O)CNC(=O)[C@H](CCC(=O)O)NC(=O)[C@H](C)NC(=O)[C@H](Cc1c[nH]cn1)NC[C@H](N)Cc1ccccc1)[C@@H](C)O)[C@@H](C)O)C(C)C)C(=O)N[C@@H](C)C(=O)N[C@@H](Cc1c[nH]c2ccccc12)C(=O)N[C@@H](CC(C)C)C(=O)N[C@H](C(=O)N[C@@H](CCCCN)C(=O)NCC(=O)N[C@@H](CCCNC(=N)N)C(N)=O)C(C)C` gave an EC50 of 0.01 nM (GLP1R; reporter gene, agonist, luciferase).
With `CC[C@H](C)[C@H]1C(=O)N(Cc2cc3ccccc3c3ccccc23)C[C@@H]2N(C(=O)NCCCC(F)(F)F)CCC(=O)N12` the EC50 was 6400 ± 300 nM (ATP-dependent Clp protease proteolytic subunit (clpP, Staphylococcus aureus, UniProt Q2G036, Y61A); activator).
With `O=C1NC(=O)c2c1c1cc(F)c[n+]3c1c1c2c2cc(O)ccc2[n]1[Ru-4]312([N]=C=S)[S+]3CC[S+]1CC[S+]2CC3` (stereo not drawn) the remaining activity was 84% (Protein kinase C eta type (PRKCH, Homo sapiens, UniProt P24723); enzyme activity; 100 nM, human enzyme, together with: 10 µM ATP; baseline: untreated).
`CCN(Cc1ccccc1)C(=O)CCc1nc(CN2CCN(C(=O)Cc3ccc(OC)c(OC)c3)CC2)no1` has an EC50 of 499 ± 87.4 nM (Sodium channel protein type 11 subunit alpha (Scn11a, Rattus norvegicus, UniProt O88457); inactivation V1/2 shift, activator, whole-cell patch clamp; rat DRG neurons, NaV1.9 current).
For `CC(C)(C)C(=O)OCOP(=O)(OCOC(=O)C(C)(C)C)C1CCCN(O)C1=O` (stereo not drawn), the GI50 was 3900 nM (SF-295).
`CC[C@H](C)[C@H](NC(=O)[C@H](Cc1ccccc1)NC(=O)[C@H](CCC(=O)O)NC(=O)[C@H](CCCCN)NC(=O)[C@H](C)NC(=O)[C@H](C)NC(=O)[C@H](CCC(N)=O)NC(=O)CNC(=O)[C@H](CCC(=O)O)NC(=O)[C@H](CC(C)C)NC(=O)[C@H](Cc1ccc(O)cc1)NC(=O)[C@H](CO)NC(=O)[C@H](CO)NC(=O)[C@@H](NC(=O)[C@H](CC(=O)O)NC(=O)[C@H](CO)NC(=O)[C@@H](NC(=O)CN(C[C@@H](NC(=O)CNC(=O)CN(C[C@H](C)NC(=O)[C@H](Cc1c[nH]cn1)NC(C)=O)S(=O)(=O)c1ccc(C(=O)O)cc1)[C@H](C)O)S(=O)(=O)Cc1ccccc1)[C@@H](C)O)C(C)C)C(=O)N[C@@H](C)C(=O)N[C@@H](Cc1c[nH]c2ccccc12)C(=O)N[C@@H](CC(C)C)C(=O)N[C@H](C(=O)N[C@@H](CCCCN)CN(CC(=O)N[C@@H](CCCNC(=N)N)C(=O)N[C@@H](CCCCN)CN(CC(N)=O)S(C)(=O)=O)S(C)(=O)=O)C(C)C` gave an EC50 of > 1000 nM (GLP1R; reporter gene, agonist, luciferase).
The EC50 of `CCCCCn1ccc(C(=O)NC(C)(C)c2ccc(CN)cc2)n1` is reported as 2860 nM (CNR1; calcium signal, agonist).
`O=C(O)CCn1c(=O)oc2cc(Cl)c(Cl)cc21` gave an EC50 of > 100000 nM (D(2) dopamine receptor (DRD2, Homo sapiens, UniProt P14416); agonist).
With `CCCCCn1ccc(C(=O)NC(C)(C)c2cccc(C#N)c2)n1` the EC50 was > 10000 nM (CNR1; calcium signal, agonist).
For `CC[C@H](C)[C@H](NC(=O)[C@H](Cc1ccccc1)NC(=O)[C@H](CCC(=O)O)NC(=O)[C@H](CCCCN)NC(=O)[C@H](C)NC(=O)[C@H](C)NC(=O)[C@H](CCC(N)=O)NC(=O)CNC(=O)[C@H](CCC(=O)O)NC(=O)[C@H](CC(C)C)NC(=O)[C@H](Cc1ccc(O)cc1)NC(=O)[C@H](CO)NC(=O)[C@H](CO)NC(=O)[C@@H](NC(=O)[C@H](CC(=O)O)NC(=O)[C@H](CO)NC(=O)[C@@H](NC(=O)[C@H](Cc1ccccc1)NC(=O)[C@@H](NC(=O)CNC(=O)[C@H](CCC(=O)O)NC(=O)[C@H](C)NC(=O)[C@@H](N)Cc1c[nH]cn1)[C@@H](C)O)[C@@H](C)O)C(C)C)C(=O)N[C@@H](C)C(=O)N[C@@H](Cc1c[nH]c2ccccc12)CN(CC(=O)N[C@H](C(=O)N[C@@H](CCCCN)CN(CC(=O)N[C@@H](CCCNC(=N)N)C(=O)N[C@@H](CCCCN)CN(CC(N)=O)S(C)(=O)=O)S(C)(=O)=O)C(C)C)S(=O)(=O)CC(C)C`, the EC50 was 52.5 nM (GLP1R; reporter gene, agonist, luciferase).
`CC(C)[C@H](NC(=O)[C@@H]1CSSC(C)(C)[C@H](NC(=O)[C@@H](N)CC(=O)O)C(=O)N[C@@H](Cc2ccccc2)C(=O)N[C@@H](Cc2c[nH]c3ccccc23)C(=O)N[C@@H](CCCCN)C(=O)N[C@@H](Cc2ccc(O)cc2)C(=O)N1)C(=O)O` gave an EC50 of 25.1 nM (Urotensin-2 receptor (UTS2R, Homo sapiens, UniProt Q9UKP6, Y305A); IP1 accumulation, agonist, HTRF; HEK293T; 1 h, 37 °C, Y305A mutant, 7.43).
The EC50 of `CCCCCCCCCCCCCCCCCC(=O)NC[C@H]1CC[C@H](C(=O)N[C@@H](CCC(=O)NCCCOCCOCCOCCCNC(=O)COCC(=O)N[C@@H](Cc2ccc(O)cc2)C(=O)NC(C)(Cc2ccccc2)C(=O)N[C@@H](CC(C)C)C(=O)N[C@@H](CCCC)C(=O)N[C@@H](CCCNC(=N)N)C(=O)N2CCC[C@H]2C(=O)N[C@@H](CCCNC(=N)NC)C(=O)N[C@@H](CC(N)=O)C(N)=O)C(=O)O)CC1` (stereo partly drawn) is reported as > 10000 nM (Neuromedin-U receptor 1 (NMUR1, Homo sapiens, UniProt Q9HB89); β-arrestin recruitment, agonist).
With `CC(C)[C@H]1NC(=O)C[C@H]2/C=C/CCSSC[C@@H](NC1=O)C(=O)N[C@H](Cc1cccc3ccccc13)C(=O)NCC(=O)O2` the inhibition was -6.8% (Mast/stem cell growth factor receptor Kit (KIT, Homo sapiens, UniProt P10721, T670I); enzyme activity, inhibitor; 10 µM).
With `CS(C)(=O)=Nc1ccc(-c2ccc(-c3nc4cc(O[C@@H]5CO[C@H]6[C@@H]5OC[C@H]6O)[nH]c4cc3F)cc2)cc1` the inhibition was 2% (Ephrin type-A receptor 8 (EPHA8, Homo sapiens, UniProt P29322); enzyme activity, inhibitor; 10 µM).
The inhibition of `CN(C)[C@H]1C[C@@]23CC[C@@]4(O2)C(=CC[C@]2(C)[C@@H](c5ccc6ccncc6c5)CC[C@H]24)C=C3[C@@H](O)[C@@H]1O` is reported as -2.9% (Dual specificity protein kinase CLK2 (CLK2, Homo sapiens, UniProt P49760); ATP probe labelling, inhibitor, KiNativ profiling; 0.1 µM).
`Cc1cc(O)cc(C)c1C[C@H](N)C(=O)N[C@H](CCCNC(=N)N)C(=O)N[C@@H](Cc1ccccc1)C(=O)N(C)CC(=O)N(C)Cc1cc(C(F)(F)F)cc(C(F)(F)F)c1` has an EC50 of > 4800 nM (Delta-type opioid receptor (OPRD1, Homo sapiens, UniProt P41143, D128N); agonist).
For `CC[C@H](C)[C@@H]1NC(=O)[C@H](CC(N)=O)NC(=O)[C@@H]2CCCN2C(=O)[C@@H](NC(=O)[C@H](CC(N)=O)NC(=O)[C@@H](N)CCC(N)=O)COC(=O)CN(CCSC)C(=O)[C@H](Cc2c[nH]c3ccccc23)NC(=O)[C@H](CCC(N)=O)NC(=O)CNC(=O)[C@H](Cc2ccccc2)NC1=O`, the EC50 was > 10000 nM (Fsr quorum sensing protein (Enterococcus faecalis, UniProt A0ACD6TCR9); Fsr quorum sensing, agonist, β-galactosidase reporter).
With `CCCCCn1ccc(C(=O)NC(C)(C)c2ccc(N)cc2)n1` the EC50 was 118 nM (CNR1; calcium signal, agonist).
With `CC[C@H](C)[C@H](NC(=O)[C@H](Cc1ccccc1)NC(=O)[C@H](CCC(=O)O)NC(=O)[C@H](CCCCN)NC(=O)[C@H](C)NC(=O)[C@H](C)NC(=O)[C@H](CCC(N)=O)NC(=O)CNC(=O)[C@H](CCC(=O)O)NC(=O)[C@H](CC(C)C)NC(=O)[C@H](Cc1ccc(O)cc1)NC(=O)[C@H](CO)NC(=O)[C@H](CO)NC(=O)[C@@H](NC(=O)[C@H](CC(=O)O)NC(=O)[C@H](CO)NC(=O)[C@@H](NC(=O)[C@H](Cc1ccccc1)NC(=O)[C@@H](NC(=O)CNC(=O)[C@H](CCC(=O)O)NC(=O)[C@H](C)NC(=O)[C@H](Cc1c[nH]cn1)NC(C)=O)[C@@H](C)O)[C@@H](C)O)C(C)C)C(=O)N[C@@H](C)C(=O)N[C@@H](Cc1c[nH]c2ccccc12)CN(CC(=O)N[C@H](C(=O)N[C@@H](CCCCN)CN(CC(=O)N[C@@H](CCCNC(=N)N)C(=O)N[C@@H](CCCCN)CN(CC(N)=O)S(C)(=O)=O)S(C)(=O)=O)C(C)C)S(=O)(=O)CC(C)C` the EC50 was 157 nM (GLP1R; reporter gene, agonist, luciferase).
With `COc1ccccc1-c1n[nH]c2nc(N[C@H]3CC[C@H](NS(=O)(=O)CC(C)C)CC3)ncc12` the relative abundance was 0.68 (bead binding, competition bead pull-down, measured: LINJ.25.1160; Leishmania donovani extract; 10 µM; baseline: vehicle).

Some of these lines once more:
`CCN(Cc1ccccc1)C(=O)CCc1nc(CN2CCN(C(=O)Cc3ccc(OC)c(OC)c3)CC2)no1` has an EC50 of 499 ± 87.4 nM (Sodium channel protein type 11 subunit alpha (Scn11a, Rattus norvegicus, UniProt O88457); inactivation V1/2 shift, activator, whole-cell patch clamp; rat DRG neurons, NaV1.9 current).
For `CC(C)(C)C(=O)OCOP(=O)(OCOC(=O)C(C)(C)C)C1CCCN(O)C1=O` (stereo not drawn), the GI50 was 3900 nM (SF-295).
